Assay results from different studies.
Parts stem from different laboratories: compare values within a part only. Substitutions count along the parent as printed.
Sequence of UniProt P62837 (whole entry, looked up): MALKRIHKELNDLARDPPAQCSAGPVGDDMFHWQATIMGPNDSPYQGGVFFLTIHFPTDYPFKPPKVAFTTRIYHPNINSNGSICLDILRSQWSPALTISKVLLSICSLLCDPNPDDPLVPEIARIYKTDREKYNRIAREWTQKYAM

Study 1 — technique: RNA Bind-n-Seq; form: RNA; sample: in vitro; tested at: 1 µM; setting: whole 134-nt RNA, ends assumed; added: 150 mM KCl; baseline: input library; direction: higher = stronger binding; quantity: log2 enrichment
Target: Ras GTPase-activating protein-binding protein 1, RRM domain (G3BP1, Homo sapiens, UniProt Q13283)
Sequence of UniProt Q13283 (whole entry, looked up): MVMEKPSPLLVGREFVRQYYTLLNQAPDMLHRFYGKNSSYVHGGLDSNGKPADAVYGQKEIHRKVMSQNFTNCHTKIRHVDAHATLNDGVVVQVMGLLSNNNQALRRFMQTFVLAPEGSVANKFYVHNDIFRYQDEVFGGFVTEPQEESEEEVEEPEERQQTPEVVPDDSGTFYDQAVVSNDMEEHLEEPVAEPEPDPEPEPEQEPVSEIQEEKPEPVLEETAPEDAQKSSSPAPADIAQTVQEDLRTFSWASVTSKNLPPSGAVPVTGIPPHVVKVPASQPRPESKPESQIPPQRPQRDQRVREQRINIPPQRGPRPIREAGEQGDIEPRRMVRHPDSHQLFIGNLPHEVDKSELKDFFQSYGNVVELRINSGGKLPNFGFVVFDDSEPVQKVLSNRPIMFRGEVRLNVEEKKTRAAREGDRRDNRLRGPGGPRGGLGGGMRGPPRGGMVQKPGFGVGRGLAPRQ
Shared flanks, not repeated: GGGAGUUCUACAGUCCGACGAUC … UGGAAUUCUCGGGUGUCAAGG
UCAAGUCCUGUGCUACACAUCGUAUGUACCGAAUCGGGGAAAGGAAAGGGAAAGGAAAGUAUUAUGUUACGCCGUUCGGAUCUGCACUUC: -0.317
UCCUGUGCUACACAUCGUAUGUACCGAAUCGGUUUUUUGGUUUUUUGGGUUUUUUGGGGAAAGUAUUAUGUUACGCCGUUCGGAUCUGCA: -0.249
CCUCAAGUCCUGUGCUACACAUCGUAUGUACCGAAUCGGUUUUUGGUGGAGGAAAGUAUUAUGUUACGCCGUUCGGAUCUGCACUUCCAG: -0.188
UCAAGUCCUGUGCUACACAUCGUAUGUACCGAAUCGGCCCGGGGCCCGGCCCGGAAAGUAUUAUGUUACGCCGUUCGGAUCUGCACUUCC: -0.594
AAGUCCUGUGCUACACAUCGUAUGUACCGAAUCGGGUUUUUGGGAAAAAGGGAGGGAAAGUAUUAUGUUACGCCGUUCGGAUCUGCACUU: 0.706
UAUCCCCUAUGAGGCACCACGUAAGACCUCCUGCCCUUAGCUCUCUUGCUCACCACCCAAGAACCUCAGGACAGAAGCGAGAGCCCAUUG: -0.156
GCAGGAAGUAAAAACAAAUGGAAAUGCUUCGGAUAGUGGCAGGGGUGGGGGUUGCUAAGGAAAGGGUGGGGUGGGAGUGGGUAAAGAGUU: 1.05
GUCCUGUGCUACACAUCGUAUGUACCGAAUCGGGGUUUUUGGGGAAAGGGGUUUGGGGAAAGUAUUAUGUUACGCCGUUCGGAUCUGCAC: 1.4

Study 2 — technique: universal PBM; form: double-stranded DNA, one strand shown; sample: in vitro; tested at: not given; direction: higher = stronger binding; quantity: E-score
Target: Sal-like protein 4, full length isoform B (SALL4, Homo sapiens, UniProt Q9UJQ4-2, residues 1-616)
Setting: 8-mer, flanks averaged, mean of replicates
ATTGGGAC: -0.0827
CGGGGACG: -0.246
CGGGCGTC: -0.215
AGTGTACG: 0.0166
ATACTGGA: 0.144
ACAACTAT: 0.168
AGTTTCGA: -0.0218
AGTCATAT: 0.36

Other studies, line by line
B1: RNF31 RING domain (UniProt Q96EP0); chain AFLRRLLAQECAVCGWALPHNRMQALTSCECTICPDCFRQHFTIALKEKHITDMVCPACGRPDLTDDTQLL
P1: viral docking peptide; KKAKRRLFTISDS; partner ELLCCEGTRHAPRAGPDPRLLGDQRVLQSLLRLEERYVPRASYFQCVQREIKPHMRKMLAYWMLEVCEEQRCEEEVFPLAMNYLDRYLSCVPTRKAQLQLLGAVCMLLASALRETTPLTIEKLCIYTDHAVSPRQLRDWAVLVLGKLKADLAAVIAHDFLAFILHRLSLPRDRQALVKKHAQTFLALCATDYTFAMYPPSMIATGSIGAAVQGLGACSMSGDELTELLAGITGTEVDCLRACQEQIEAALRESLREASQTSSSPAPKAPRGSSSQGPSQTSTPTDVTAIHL
B1 (RNF31 RING domain)  lacZ reporter activity (UBE2D2 UBC core domain (UniProt P62837); yeast two-hybrid; yeast; mostly zero background; baseline: not given, higher = stronger interaction): 0
KPKALSEAF  binding (HLA class I histocompatibility antigen, A alpha chain, allele A*25:01 (Homo sapiens, UniProt P04439); peptide-MHC binding; peptide; concentration not given): inactive
P1 L7A  normalised enrichment score (CCND3, cyclin fold, Cln2 fusion (human); yeast growth competition, sequencing; yeast; weak parent motif; baseline: not given, higher = stronger binding): 0.135

Some of these lines once more (study 1):
UCAAGUCCUGUGCUACACAUCGUAUGUACCGAAUCGGCCCGGGGCCCGGCCCGGAAAGUAUUAUGUUACGCCGUUCGGAUCUGCACUUCC: -0.594
